Results collected from several papers.
Protocols differ between the studies behind these lines. Values joined by “and” are separate records of one study, mostly repeats; a detail may differ. ± gives the spread as reported.
UCHL1: Ubiquitin carboxyl-terminal hydrolase isozyme L1 (UCHL1, Homo sapiens, UniProt P09936)
Sequence of UniProt P09936 (whole entry, looked up): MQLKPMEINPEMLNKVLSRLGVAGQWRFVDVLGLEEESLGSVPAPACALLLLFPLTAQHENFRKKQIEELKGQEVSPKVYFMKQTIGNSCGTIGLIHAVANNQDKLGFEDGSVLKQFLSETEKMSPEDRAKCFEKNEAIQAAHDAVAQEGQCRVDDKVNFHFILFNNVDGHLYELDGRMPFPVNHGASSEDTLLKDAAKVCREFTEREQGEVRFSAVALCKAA

C=CC(=O)N1CC2CC(n3nc(-c4ccc(C(=O)Nc5ccccn5)cc4)c4c(N)ncnc43)CC2C1 (stereo not drawn) — AUC(0-last) (SCID mice, plasma; oral, 15 mg/kg twice daily): 13.5 µg·h/mL
c1ccc(-c2nc(N3CCC(c4ccccn4)C3)c3ccccc3n2)nc1 (stereo not drawn) — AUC(0-last) (female Balb/c mice, plasma; intravenous, 2 mg/kg, mean, together with: ABT 2 h prior): 6.79 µg·h/mL
CC(C)NCC(O)COc1cccc2ccccc12 (stereo not drawn) — mean blood pressure (male Hartley guinea pigs, anaesthetized; intravenous, 3 mg/kg group, baseline before infusion): 36 ± 0.3 mmHg
Cc1ccc(Sc2ccccc2N2CCNCC2)c(C)c1 — participants with TEAE (refers to: Nausea; healthy adult women; oral, 10 mg daily, 12 days): 16.7%
CC(C)C[C@H](NC(=O)[C@H](CC(C)C)NC(=O)[C@H](Cc1c[nH]c2ccccc12)NC(=O)[C@H](CCC(=O)O)NC(=O)[C@@H](NC(=O)[C@H](Cc1ccccc1)NC(=O)[C@H](CCC(=O)O)NC(=O)[C@H](CCCCNC(=O)COCCOCCNC(=O)COCCOCCNC(=O)CC[C@H](NC(=O)CCCCCCCCCCCCCCCCCCC(=O)O)C(=O)O)NC(=O)[C@H](C)NC(=O)[C@H](CCCCN)NC(=O)[C@H](CCCCN)NC(=O)[C@H](CCC(=O)O)NC(=O)[C@H](CC(=O)O)NC(=O)[C@H](CC(C)C)NC(=O)[C@H](Cc1ccc(O)cc1)NC(=O)[C@H](CCCCN)NC(=O)[C@H](CO)NC(=O)[C@H](Cc1ccc(O)cc1)NC(=O)[C@H](CC(=O)O)NC(=O)[C@H](CO)NC(=O)[C@@H](NC(=O)[C@H](Cc1ccccc1)NC(=O)[C@@H](NC(=O)CNC(=O)[C@H](CCC(N)=O)NC(=O)C(C)(C)NC(=O)[C@@H](N)Cc1c[nH]cn1)[C@@H](C)O)[C@@H](C)O)C(C)C)C(=O)N[C@@H](CCC(=O)O)C(=O)NCC(=O)NCC(=O)N1CCC[C@H]1C(=O)N[C@@H](CO)C(=O)N[C@@H](CO)C(=O)NCC(N)=O — CLss/F (human, plasma; subcutaneous, 16 mg weekly, week 20, cohorts 1 and 2): 0.02 L/h
Nc1nc2c(nc([N+](=O)[O-])n2[C@@H]2O[C@H](CO)[C@@H](O)[C@H]2O)c(=O)[nH]1 — nucleoside remaining fraction (depurination, RP-HPLC; citrate-phosphate buffer 0.5 mM; 240 min, pH 5, 37 °C): 0.779
CCCCC1=NC2(CCCC2)C(=O)N1Cc1ccc(-c2ccccc2S(=O)(=O)Nc2noc(C)c2C)c(COCC)c1 — AUC(0-inf) (healthy adult volunteers, plasma; oral, 1600 mg, single dose, fed, crushed tablet): 311 µg·h/mL
C=CC(=O)Nc1cc(Nc2nccc(-c3cn(C)c4ccccc34)n2)c(OC)cc1N(C)CCN(C)C — recovery (storage stability; human dried blood spots; 24 h, -80 °C, medium QC level): 87.4%
Cc1cc(C#N)cc(C)c1Oc1nc(Nc2ccc(C#N)cc2)nc(N)c1Br — maximum supersaturated concentration (solvent-shift UV; FaSSIF with 0.1% HPMC): 95 µg/mL
COc1cc2c3c(n(CCCN4CCOCC4)c(=O)c2cc1OC)-c1cc2c(cc1C3=O)OCO2 — Cmax (beagle dogs, female, plasma; intravenous infusion, 215 mg/m^2, 1 h infusion): 0.772 µg/mL
CC(C)c1nc(N(C)S(C)(=O)=O)nc(-c2ccc(F)cc2)c1/C=C/[C@@H](O)C[C@@H](O)CC(=O)O — plasma concentration (Wistar albino rat, both sexes, plasma; oral, 20 mg/kg, 8 h): 0.404 µg/mL
CNCCOC12CC3(C)CC(C)(CC(Cn4ncc(-c5ccc(N6CCc7cccc(C(=O)Nc8nc9ccccc9s8)c7C6)nc5C(=O)O)c4C)(C3)C1)C2 — QTcV interval change (beagle dog, male, anaesthetised; intravenous bolus, 0.03 mg/kg, 75 min; baseline: baseline): 13 ms
COc1cc2c(CCNC(C)=O)c[nH]c2cc1O — specific activity (sulfation, substrate; pooled human liver cytosol; 50 µM, 30 min, together with: 50 mM NaF): 128 ± 6.13 pmol/min/mg
O=C(Nc1nc2cccc(-c3ccc(CN4CCS(=O)(=O)CC4)cc3)n2n1)C1CC1 — treatment-emergent adverse events (refers to: dysgeusia; human rheumatoid arthritis patients; oral, 200 mg once daily, 4 weeks, regardless of relatedness): 0%
COC(=O)Nc1ccc2nc(C(=N)N)ccc2c1 — pKa: 10.1
CCN1/C(=C/C(C)=O)Sc2ccc(F)cc21 — QTc interval change (cynomolgus monkey; oral, 30 mg/kg, 6 h post-dose; baseline: pre-dose): 103 ± 2.6%
CC(=O)N(C)[C@H]1CCN(C(=O)c2cnc3c(c2)C[C@](C)(c2ccc(F)cc2)N3)C1 — adverse event duration (refers to: hay fever; human; oral, 30 mg once daily): 2 days
CCOC(=O)c1ccc2nc(NC(=O)c3cccs3)sc2c1 — maximum haemolysis (sheep erythrocytes; 1 h, pH 7.5): 14.9%
Cc1cc(C)c(CNC(=O)c2cc(Cl)c3c(c2C)O[C@@](C)([C@H]2CC[C@H](N(C)C)CC2)O3)c(=O)[nH]1 — patients with TEAE (refers to: Hypertension; human patients; oral, 200 mg once daily, 1 day onset day 14): 4.2%
S=C(S)N1CCCC1 — EC50 (Toxoplasma gondii; parasite growth; HFF, bradyzoite, glutamine-induced): 33.9 µM
CC(C)(C(=O)N1CCOc2c(C#N)cncc2C1)C(F)F — subjects with TEAE (refers to: general and administration site conditions; healthy humans, both sexes; oral, 10 mg single dose): 0%
O=C(N/N=C/c1ccccc1O)c1ccncc1 — stability (rat plasma; 0.24 µM, 12 h, 5 °C, post-preparative): 94.7%
Oc1ccc(Cl)c2cccnc12 — pKa (basic): 4.1
CC(C)(C)c1ccc(O)c(CN(Cc2cc(C(C)(C)C)ccc2O)C2CCC(NC(N)=O)CC2)c1 (stereo not drawn) — elimination rate constant (C57BL/6 mice, male, plasma; intraperitoneal, 10 mg/kg): 7.78e-05 s⁻¹
COc1ccc(CCN(C)CCCC(C#N)(c2ccc(OC)c(OC)c2)C(C)C)cc1OC (stereo not drawn) — inhibition (Trypanosoma cruzi; reporter translation, Renilla luciferase mRNA translation; cell-free extract; 40 µM; baseline: DMSO): 5.7%
C=CC(=O)N(C)CCOc1c(N)ncnc1-c1cc(F)cc(NC(=O)c2ccc(C3CC3)cc2F)c1C — mean residence time (human, whole blood; oral, 100 mg, single ascending dose): 2.84 h
COc1ncc(-c2nc3c(n2C(C)C)[C@H](c2ccc(Cl)cc2)N(c2cc(Cl)cn(C)c2=O)C3=O)c(OC)n1 — median Tmax (human patients, plasma; oral, 30 mg, low-dose arm, cycle 1 day 8): 4 h
C=CCn1c(=O)c2cnc(Nc3ccc(N4CCN(C)CC4)cc3)nc2n1-c1cccc(C(C)(C)O)n1 — AUC(0-10) (human; oral, 250 mg once daily, monotherapy lead-in, -5 days; geometric mean): 6.8 µM·h
CCN(CC)/C(N)=N\c1ccc(NC(=O)c2ccc(C(=O)Nc3ccc(/N=C(\N)N(CC)CC)cc3)cc2)cc1 — maximum haemolysis (sheep erythrocytes; 1 h, pH 7.5): 1.9%
COc1cc2[nH]c(C)c(-c3ccc(C(C)(C)C)cc3)c(=O)c2cc1Cl — Papp (PAMPA; pH 7.4): < 50 nm/s
CCn1c(=O)c(-c2cc(NC(=O)Nc3ccccc3)c(F)cc2Br)cc2cnc(NC)cc21 — mid-term stability accuracy (human plasma; 4000 ng/mL, 1 weeks, 4 °C, high QC): 3.41%
CC(C)NCC(O)c1ccc(NS(C)(=O)=O)cc1 (racemic) — mean blood pressure (male Hartley guinea pigs, anaesthetized; intravenous, 1 mg/kg group, baseline before infusion): 41 ± 0.3 mmHg
COc1cc(/C=C/C(=O)CC(=O)/C=C/c2ccc(O)c(OC)c2)ccc1O — reduction of viability (MTT; PC-12, rat; 30 µM, 10% FBS): 21.8%
O=C(COc1ccc(Cl)cc1)NC12CC(c3nnc([C@H]4C[C@@H](OC(F)(F)F)C4)o3)(C1)C2 — treatment-emergent adverse events (at least 1 event; human, both sexes; oral, dose not given, single ascending dose, fasted, all doses; baseline: subjects): 63.9%
Cn1cc([C@H]2C[C@H]3CSC(N)=N[C@@]3(c3ccc(F)cc3F)CO2)cn1 — brain concentration (male 129/SVE mouse, brain; subcutaneous, 50 mg/kg, 13 h): 0.952 µM
CCc1ccc(NC(=O)C(C#N)=Cc2ccc(F)c(C#N)c2)cc1 — labelling (UCHL1; covalent, intact protein LC-MS; 12.5 µM): 25.6%
O=C(O)CNC(=O)c1nc(Cl)c2ccccc2c1O — pKa (acidic): 3.1
CC(C)n1c(Nc2cccnc2)nc2cnc(Nc3ccc(N4CCN(C)CC4)cc3)nc21 — adverse event incidence (refers to: Rash; healthy male subjects; oral, 100 mg, together with: gemfibrozil): 7.1%
O=C1Cc2cc(CCN3CCN(c4nsc5ccccc45)CC3)c(Cl)cc2N1 — mean blood pressure (male Hartley guinea pigs, anaesthetized; intravenous, 0.1 mg/kg group, baseline before infusion): 35 ± 0.2 mmHg
Cc1cc(-c2nnc(N)nc2-c2ccc(F)cc2)cc(Cl)n1 — patients with immune-mediated AE (refers to: rash; IO-naive other solid tumour patients; oral, 100 mg once daily, treatment-related, grade 1): 5.3%
CCC(CC)C(=O)Oc1cccc(C(O)CCN)c1.O=CO (stereo not drawn) — ERG a-wave amplitude (scotopic ERG; BALB/cJ mice; intraperitoneal, 10 mg/kg, 2 h dark adaptation, together with: 10,000 lx photobleach, 10 min): 15 µV and 42 µV and 50 µV and 51 µV and 27 µV
O=C(O)CCC(=O)O.[2H]C([2H])([2H])Oc1cc(C)c2[nH]ccc2c1CN1CC[C@@H](C2CC2)C[C@H]1c1ccc(C(=O)O)cc1 — TEAE decreased fibrinogen (healthy Chinese subjects; 600 mg, single ascending dose): 0%
CCCCNC(=O)C(C#N)=Cc1ccc(Cl)cc1 — labelling (UCHL1; covalent, intact protein LC-MS; 12.5 µM): 18.4%
CCOc1c([C@H](C)n2nc(C)c3c(N)ncnc32)cc(Cl)c(F)c1[C@@H]1CNC(=O)C1 — Tmax median (patients, monotherapy; oral, 10 mg once daily, cycle 1 day 15): 1 h
c1cc2nc(c1)CNCc1cccc(n1)CNC2 — sum of log protonation constants (potentiometry): 15.6
CCO[C@H]1CCN(Cc2c(OC)cc(C)c3[nH]ccc23)[C@H](c2ccc(C(=O)O)cc2)C1 — total half-life (human mild hepatic impairment, plasma; oral, 200 mg single dose, median): 24.3 h
CCOC(=O)c1c(NC(=O)Cn2cnc([N+](=O)[O-])n2)sc2c1CCC(C)C2 (stereo not drawn) — inhibition (Trypanosoma cruzi; reporter translation, Renilla luciferase mRNA translation; cell-free extract; 40 µM; baseline: DMSO): 5.6%
CC(C)(C)c1ccc(C(O)CCCN2CCC(C(O)(c3ccccc3)c3ccccc3)CC2)cc1 (stereo not drawn) — mean blood pressure (male Hartley guinea pigs, anaesthetized; intravenous, 0.3 mg/kg over 10 min, after infusion): 33 ± 0.1 mmHg
Cc1cc(NC2CCN(C(=O)OC3CCN(C(=O)/C=C/CN(C)C)C3)CC2)n2ncc(C(C)C)c2n1 (stereo not drawn) — patients with Arthralgia (patients with advanced solid tumours; dose not given, QD arm, grade 3 or higher): 0%
COc1ccc(C[C@@H](C)[C@@H](C)Cc2ccc(OC)c(OC)c2)cc1OC — Tmax (beagle dog male, plasma; oral, 1000 mg/kg/day, day 1, median): 4 h
CC[C@H](C)[C@H](NC(=O)CN)C(=O)N[C@@H](C)C(=O)N[C@@H](CCCCN)C(=O)N[C@@H](C)C(=O)N[C@H](C(=O)N[C@@H](CCCCN)C(=O)N[C@@H](CCCCN)C(=O)N[C@H](C(=O)N[C@@H](C)C(=O)N[C@@H](CCCCN)C(=O)N[C@@H](C)C(=O)N[C@@H](CC(C)C)C(=O)NCC(N)=O)[C@@H](C)CC)[C@@H](C)CC — mean residue ellipticity (circular dichroism at 222 nm; 30% TFE; 100 µM): -6520 deg cm2/dmol

Some of these lines once more:
CCCCC1=NC2(CCCC2)C(=O)N1Cc1ccc(-c2ccccc2S(=O)(=O)Nc2noc(C)c2C)c(COCC)c1 — AUC(0-inf) (healthy adult volunteers, plasma; oral, 1600 mg, single dose, fed, crushed tablet): 311 µg·h/mL
C=CC(=O)Nc1cc(Nc2nccc(-c3cn(C)c4ccccc34)n2)c(OC)cc1N(C)CCN(C)C — recovery (storage stability; human dried blood spots; 24 h, -80 °C, medium QC level): 87.4%
Cc1cc(C#N)cc(C)c1Oc1nc(Nc2ccc(C#N)cc2)nc(N)c1Br — maximum supersaturated concentration (solvent-shift UV; FaSSIF with 0.1% HPMC): 95 µg/mL
COc1cc2c3c(n(CCCN4CCOCC4)c(=O)c2cc1OC)-c1cc2c(cc1C3=O)OCO2 — Cmax (beagle dogs, female, plasma; intravenous infusion, 215 mg/m^2, 1 h infusion): 0.772 µg/mL
CC(C)c1nc(N(C)S(C)(=O)=O)nc(-c2ccc(F)cc2)c1/C=C/[C@@H](O)C[C@@H](O)CC(=O)O — plasma concentration (Wistar albino rat, both sexes, plasma; oral, 20 mg/kg, 8 h): 0.404 µg/mL
CNCCOC12CC3(C)CC(C)(CC(Cn4ncc(-c5ccc(N6CCc7cccc(C(=O)Nc8nc9ccccc9s8)c7C6)nc5C(=O)O)c4C)(C3)C1)C2 — QTcV interval change (beagle dog, male, anaesthetised; intravenous bolus, 0.03 mg/kg, 75 min; baseline: baseline): 13 ms
